{"data": "Results pooled from the literature", "note": "Parts stem from different laboratories: compare values within a part only. Substitutions count along the parent as printed."}
{"data": "Set 1", "target": "Histone acetyltransferase KAT6A, winged helix 2, GST fusion (KAT6A, Homo sapiens, UniProt Q92794, residues 85-181)", "technique": "protein binding microarray", "molecule type": "double-stranded DNA, one strand shown", "sample": "in vitro", "tested at": "not given", "setting": "8-mer, flanks averaged, mean of 2 arrays, mostly near background", "reference": "not given", "direction": "higher = stronger binding", "Construct (chain)": "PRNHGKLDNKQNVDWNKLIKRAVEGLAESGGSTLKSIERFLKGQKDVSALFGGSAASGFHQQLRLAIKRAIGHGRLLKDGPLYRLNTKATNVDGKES"}
{"Strand": "CATCAACG", "E-score": 0.0893}
{"Strand": "GCCAGGGC", "E-score": 0.0605}
{"Strand": "CCGTAACA", "E-score": 0.0226}
{"Strand": "CACCGACC", "E-score": 0.0924}
{"Strand": "GAGAGAAA", "E-score": 0.14}
{"Strand": "TAGTTATA", "E-score": -0.0612}
{"Strand": "CCCCGTAA", "E-score": -0.0353}
{"Strand": "CGTTTAAC", "E-score": -0.026}
{"Strand": "GAATCCAC", "E-score": -0.0561}
{"data": "Set 2", "target": "CCND3, cyclin fold, Cln2 fusion (human)", "technique": "yeast growth competition, sequencing", "sample": "yeast", "setting": "weak parent motif", "reference": "not given", "direction": "higher = stronger binding", "starting sequence": "PKMYT1 docking peptide (human); SFEPRNLLSLFED"}
{"Variant": "SFEPRNLLSLFEE [D13E]", "normalised enrichment score": 0.0916}
{"Variant": "SFEPRNFLSLFED [L7F]", "normalised enrichment score": 0.0564}
{"Variant": "CFEPRNLLSLFED [S1C]", "normalised enrichment score": 0.0833}
{"Variant": "SFEPRNLLSQFED [L10Q]", "normalised enrichment score": 0.0731}
{"Variant": "SFEPRLLLSLFED [N6L]", "normalised enrichment score": 0.0744}
{"Variant": "LFEPRNLLSLFED [S1L]", "normalised enrichment score": 0.126}
{"Variant": "SFEPRNLLSDFED [L10D]", "normalised enrichment score": 0.166}
{"Variant": "SFCPRNLLSLFED [E3C]", "normalised enrichment score": 0.0666}
{"Variant": "AFEPRNLLSLFED [S1A]", "normalised enrichment score": 0.0892}
{"Variant": "SFWPRNLLSLFED [E3W]", "normalised enrichment score": 0.0879}
{"Variant": "SFEPTNLLSLFED [R5T]", "normalised enrichment score": 0.0854}
{"Variant": "SFEPRNLLLLFED [S9L]", "normalised enrichment score": 0.0919}
{"Variant": "SFEPRNYLSLFED [L7Y]", "normalised enrichment score": 0.082}
{"Variant": "NFEPRNLLSLFED [S1N]", "normalised enrichment score": 0.0537}
{"data": "Set 3", "target": "RNA binding protein fox-1 homolog 2, RRM domain, GST-SBP tag (RBFOX2, Homo sapiens, UniProt O43251-10, residues 100-194)", "technique": "RNA Bind-n-Seq", "molecule type": "RNA", "sample": "in vitro", "tested at": "365 nM", "setting": "natural RNA segment, single round, ends assumed", "reference": "no-protein control", "direction": "higher = stronger binding", "constant ends, left off below": "GGGAGUUCUACAGUCCGACGAUC … UGGAAUUCUCGGGUGCCAA", "Target sequence (chain)": "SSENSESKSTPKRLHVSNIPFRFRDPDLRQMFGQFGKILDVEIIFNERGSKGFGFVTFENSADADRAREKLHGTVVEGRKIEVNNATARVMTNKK"}
{"Strand": "AAAUUUUAGCUUAAUUGUCUUUGACAAUGGACUAUUUGGAGAAAUGAAUGAAUAGGUUGUGGCUGUCAACCUCUGGAACCAGAAGUGCCUGUAAGACAGUCCUUCAAGUU", "RBNS enrichment (R)": 0.841}
{"Strand": "AGCUAACCCUAAGGUUUCCUAGCUGUGGGAAGAGGUGAGUUCUUUGAGACCUCCGGCCUUAGGAAGUUGCUUCCAUUAGGAAAUGCCUUUCUGAUCCCAGGAGCUCAGCU", "RBNS enrichment (R)": 0.187}
{"Strand": "AAACAAUCCCGACAAUCCCUUAUCCCUACCCCAACCCUUUGCGGCUCUGUACACAUUUUUAAACCUGGCAAAAGAUGAAGAGAAUAUUGUAAAUAUAAAAGUUUAACUGU", "RBNS enrichment (R)": 0.735}
{"Strand": "AAACAAAAUGUGUCCUACUUAAUUGGUAUAUGUGUUUUUCAAACAAUCAUUUGAGGGGUGUUUUGAUUUGGUUUGGUUUUUGUUUCUGUCUUUUUGGUCCAUUCAUUCAC", "RBNS enrichment (R)": 0.561}
{"Strand": "ACUAUAUUUCUCAAUCGGACCUCAGGCAAGAUGGCCAUCCCUGUGCUGUGGGAGUUUCUAGAGAAGUACCCUUCAGCUGAAGUGGCCCGAGCUGCCGACUGGAGGGACGU", "RBNS enrichment (R)": 0.513}
{"Strand": "UUGUAAAGUGUCCACUGCGCCGUUCGUUUAUUUCCCUCGAUUUUCUUCUUCCUCUCGCCUUCCUUCUUCGCAGCCCUCCUGUCCCGGUUCAGGCUUGCUGUCUCUUGUCC", "RBNS enrichment (R)": 1.68}
{"Strand": "CCCCACUAAGCUGAAGGCCCCCUGGGGGAGGGGGAAGCAUGGUCCUUAUCAUCUGCCCUAUCUUGCCCCUUCCUGUGGAGUGGGCAGAAGGGCUCCCGGGAUCCUCAGAG", "RBNS enrichment (R)": 3.75}
{"Strand": "UAGCUGGGGAUUACAGGUGCCUACCAGCAUGCUCGGCUAAUUUUUUUGUAUUUUUAGUAGAGAAGGGAUUUCACCAUGUUGGCCGGGCUGGUCUCAAACUCCUAAGGUCA", "RBNS enrichment (R)": 1.32}
{"Strand": "GGAUUCUGGGGGAAGGAGAGAAGGGCAGCUCAGGGUGGAUGUGAAGCCACCCUUCCUCUUCUGGACCCAGCCUGGUCUGCACUGCAACCUCCACCAGGACCAGGAUCCUG", "RBNS enrichment (R)": 0.757}
{"Strand": "CCUUUCUUUGCCAUGAGGCCAUGAGGCCCGCUUCAUCCUUUUCUAUUUCCCUAGAACCUUAAUGGUAGAAGGAAUUGCAAAGAAUCAAGUCCACCCUUCUCAUGUGACAG", "RBNS enrichment (R)": 0.266}
{"Strand": "UGAACUUGCAUAUGGGGCUUAGCCUUCUAGUCACAGCCUCUAUAUUUGAUGCUAGAAAACACAUAUUUUUAAAUGGAAGAAAAAUAAAAAGGCAUUCCCCCUUCAUCCCC", "RBNS enrichment (R)": 0.573}
{"Strand": "AGUGUAUUAAUCAUAGAUUAUUAUAAACUAUAAACUUAAGGGCAAGGAAUUUAUUACAAUGUAUCUUUAUUAAAACAAAAGGGUGUAUAGUGUUCACAAACUGUGAAAAU", "RBNS enrichment (R)": 0.779}
{"data": "Set 4", "target": "Interferon regulatory factor 7, full length, phosphomimetic (IRF7, Homo sapiens, UniProt Q92985, residues 1-503, S101K/S471D/S472D/S475D/S476D/S477D/S483D/S484D/S487D)", "technique": "protein-binding microarray", "molecule type": "double-stranded DNA, one strand shown", "sample": "in vitro", "tested at": "250 nM", "setting": "60-bp whole probe", "together with": "salmon DNA 0.4 mg/ml", "reference": "random background probes", "direction": "higher = stronger binding", "constant ends, left off below": "GCCTAGCAC … GTCTTGATTCGCTTGACGCTGCTG", "UniProt Q92985, sequence (whole entry, unmodified, looked up)": "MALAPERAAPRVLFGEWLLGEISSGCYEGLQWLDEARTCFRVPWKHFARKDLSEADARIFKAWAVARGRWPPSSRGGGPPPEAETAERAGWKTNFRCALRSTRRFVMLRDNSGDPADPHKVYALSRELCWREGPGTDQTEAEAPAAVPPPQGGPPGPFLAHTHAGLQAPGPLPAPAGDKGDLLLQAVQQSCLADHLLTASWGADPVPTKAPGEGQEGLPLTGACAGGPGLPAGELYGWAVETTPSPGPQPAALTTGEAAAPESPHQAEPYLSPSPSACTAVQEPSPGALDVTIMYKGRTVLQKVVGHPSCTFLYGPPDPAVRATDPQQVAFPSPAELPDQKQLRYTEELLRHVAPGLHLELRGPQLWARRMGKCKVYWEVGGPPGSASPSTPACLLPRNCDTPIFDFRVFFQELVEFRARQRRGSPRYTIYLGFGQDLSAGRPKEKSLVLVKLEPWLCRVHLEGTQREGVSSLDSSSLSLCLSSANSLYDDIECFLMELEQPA"}
{"Strand": "TTGAGTCTTCTCCTCTAGGTGTGCTAG", "log fluorescence": "-0.125 z-score"}
{"Strand": "TTAGATATCAGTATAGATTAGTGCTAG", "log fluorescence": "-0.0998 z-score"}
{"Strand": "CCGAAAATGCCCTTTTGGTGAGTGCTA", "log fluorescence": "0.179 z-score"}
{"Strand": "AGGAGTATTTATCTGCAAAGGTGCTAG", "log fluorescence": "-0.204 z-score"}
{"Strand": "GACGATATCGGTTTCGAGACGTGCTAG", "log fluorescence": "4.68 z-score"}
{"Strand": "TTAGATTTGAGTCTCGATTAGTGCTAG", "log fluorescence": "1.9 z-score"}
{"Strand": "TCATCTTGCTTTTTAGAACTGTGCTAG", "log fluorescence": "0.436 z-score"}
{"Strand": "TCAGATCTCAGTATCGATTAGTGCTAG", "log fluorescence": "1.05 z-score"}
{"Strand": "TGAGGTTTCCTTTCCCTTTAGTGCTAG", "log fluorescence": "4.42 z-score"}
{"Strand": "TTAGAATTCGGGACTGGATTAGTGCTA", "log fluorescence": "-0.137 z-score"}
{"Strand": "TTATGACTGCTTTTCCTTTAGTGCTAG", "log fluorescence": "0.416 z-score"}
{"Strand": "TTAGGTATCTACTTTCGGTTAGTGCTA", "log fluorescence": "2.84 z-score"}
{"Strand": "GTAGGTTTCCTTTCCCTTTAGTGCTAG", "log fluorescence": "4.35 z-score"}
{"Strand": "TTATGTCTCCTTATCCTTTAGTGCTAG", "log fluorescence": "0.412 z-score"}
{"Strand": "GACGAGATCAGTCTCGAGACGTGCTAG", "log fluorescence": "0.705 z-score"}
{"note": "For quick reference, copied from above (set 3):"}
{"Strand": "GGAUUCUGGGGGAAGGAGAGAAGGGCAGCUCAGGGUGGAUGUGAAGCCACCCUUCCUCUUCUGGACCCAGCCUGGUCUGCACUGCAACCUCCACCAGGACCAGGAUCCUG", "RBNS enrichment (R)": 0.757}
{"Strand": "ACUAUAUUUCUCAAUCGGACCUCAGGCAAGAUGGCCAUCCCUGUGCUGUGGGAGUUUCUAGAGAAGUACCCUUCAGCUGAAGUGGCCCGAGCUGCCGACUGGAGGGACGU", "RBNS enrichment (R)": 0.513}
{"Strand": "AAACAAAAUGUGUCCUACUUAAUUGGUAUAUGUGUUUUUCAAACAAUCAUUUGAGGGGUGUUUUGAUUUGGUUUGGUUUUUGUUUCUGUCUUUUUGGUCCAUUCAUUCAC", "RBNS enrichment (R)": 0.561}
{"Strand": "AAACAAUCCCGACAAUCCCUUAUCCCUACCCCAACCCUUUGCGGCUCUGUACACAUUUUUAAACCUGGCAAAAGAUGAAGAGAAUAUUGUAAAUAUAAAAGUUUAACUGU", "RBNS enrichment (R)": 0.735}
{"Strand": "UGAACUUGCAUAUGGGGCUUAGCCUUCUAGUCACAGCCUCUAUAUUUGAUGCUAGAAAACACAUAUUUUUAAAUGGAAGAAAAAUAAAAAGGCAUUCCCCCUUCAUCCCC", "RBNS enrichment (R)": 0.573}
{"Strand": "CCCCACUAAGCUGAAGGCCCCCUGGGGGAGGGGGAAGCAUGGUCCUUAUCAUCUGCCCUAUCUUGCCCCUUCCUGUGGAGUGGGCAGAAGGGCUCCCGGGAUCCUCAGAG", "RBNS enrichment (R)": 3.75}
